Measurements pooled from the literature.
Numbered parts are unrelated; each lists some results of a single study.

Study 1 — technique: RNA Bind-n-Seq; form: RNA; medium: in vitro; tested at: 100 nM; reference: input RNA pool; direction: higher = stronger binding
Target: RING finger protein unkempt homolog, zinc fingers 1-6, SBP tag (UNK, Homo sapiens, UniProt Q9C0B0, residues 30-357)
UniProt Q9C0B0, sequence (30-357, looked up): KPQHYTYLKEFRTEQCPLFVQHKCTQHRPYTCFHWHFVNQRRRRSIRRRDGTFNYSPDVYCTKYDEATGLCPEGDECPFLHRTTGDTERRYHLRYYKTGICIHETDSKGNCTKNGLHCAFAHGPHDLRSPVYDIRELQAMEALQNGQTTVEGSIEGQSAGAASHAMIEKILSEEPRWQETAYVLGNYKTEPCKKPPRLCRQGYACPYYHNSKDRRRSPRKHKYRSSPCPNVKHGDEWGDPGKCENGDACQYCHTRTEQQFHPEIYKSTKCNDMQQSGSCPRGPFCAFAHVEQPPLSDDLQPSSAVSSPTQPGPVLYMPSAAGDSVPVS
Notes: RNA with constant flanks, vertebrate orthologous sites, ends assumed
Constant ends, left off below: GGGAGUUCUACAGUCCGACGAUC … CAACAGAGGAUUGAGCAUCA
| Sequence | bound/input enrichment |
| --- | --- |
| CAGCAGAUUCUCUCAUAGGGAGAGCUGCACACAUUGCUGUUCUUGAUUCAGAAAUAUUUUUAGAAAAAUUCUUUCUUGUUGCUGCCCUAAAAUAUUUUCAGUAGGGAAAAGCAUUGUAAG | 0.345 ratio |
| AUUCAAACCUGUGAUACCAUGGCCUCACGUGGAGGGCGUAGAAGUGGACUUAGAGUCUAUUAGAAGGAAAAACAAGGCCAGAAAUGACCAGGAACGCCGUGCAGGAGGGGACCCCCAGAA | 0.526 ratio |
| CCCAUGGCUGCUUUGUGUCACCUCAGUGACUUACAGUCCCCCUUGGCAUUUAGUUGGUACUAGAGCCAGUCAUCCUUAACAAAUCUUUUCACAUUUUAUUUCUUUCACAUGUAGUCAUCU | 2 ratio |
| CAGACCAACUCACUAGCUCUCAGCACUCGUUAGAGGGGUAUUUGGGCGCAGCCAGUGGAACGGAGAUGUCCUACCAACAGGACCCCUCCAAUCAUACAACAGUCUCCUGCAGCCCCCCCA | 0.278 ratio |
| CCCUCUGAACCCCAUAUCUUCUGUUUCAUAAUGCAGAAGUAUUAUUUUCAAUUAUAUUGUUAGUGGACUUGUUUUAAUUUUAGAGAACUUUGAGUACAGAUACUGUGAGCUUACAUUGAA | 3.57 ratio |
| GGCAGGGCCCAGGCCCCUGCCACUCAGAGUGGCCCACUGGCCACUUCAGCCAGGCCAUUUUGGCUUUGUUUUUUAACAGUGCCCUUAUUACCCUGUAUAUAUGCCUGAUAUUUGGACAUA | 0.238 ratio |
| CAGUGCCAUGGUUGAUGGGUCUGAGCUCAAAAAAGUGCGAUCCAAUUCGCGCAUUUACCAUCGCUACUUUCUCCUUGACGCCGACAUGCAGUCUUUGAGAUGGGAGCCUUCAAAGAAGGA | 0.149 ratio |
| AAGUAGUUUUAAGCUUGUUUGCACAGUUCUUUUUUCCAUUGGAAAUGGAAUUCAUUGCCUUAGGUCUUUUUAAAUAGUGUAUUAUUAUUGUUGGGGCUGGCUCUAUGCUUGAAAACCAGU | 3.59 ratio |
| GUCAUCUGACUGGAUGAAGACUGUUCCGAGUUAUAACCAAACAAAUAGCUCCAUGGACUUUAGAAAUUAUAUGAUGAGAGAUGAGACUCUGGAACCACUGCCCAAAAACUGGGAAAUGGC | 0.828 ratio |
| GGAGGGAUUUGAGUAUUAGCAUUUAAAAAAAAUUUUUGUCUUUUAUCCCUACCUAAUACUUAGCCUAAAAAUUUCAGUUCUUUGAACUGAUAAUUCUGAUUUUCAAAUUAUUGUUGCUGG | 0.641 ratio |
| UUAAAGUCAUUUUUUCACAUUUCCUGUAAAUAAUGGGUAAUCAUUUUUUAUUUUAUUUUUAAGUGCUGUUUUAACAAUGUGGAUAGACCAUAAAUGUACUUGCUGAAUUCAUUCAUUUUU | 0.358 ratio |

Study 2 — technique: protein binding microarray; form: double-stranded DNA, one strand shown; medium: in vitro; tested at: not given; reference: not given; direction: higher = stronger binding
Target: Histone acetyltransferase KAT6A, both winged helices, GST fusion (KAT6A, Homo sapiens, UniProt Q92794, residues 1-181)
Notes: 8-mer, flanks averaged, mean of 2 arrays, mostly near background
Construct (chain): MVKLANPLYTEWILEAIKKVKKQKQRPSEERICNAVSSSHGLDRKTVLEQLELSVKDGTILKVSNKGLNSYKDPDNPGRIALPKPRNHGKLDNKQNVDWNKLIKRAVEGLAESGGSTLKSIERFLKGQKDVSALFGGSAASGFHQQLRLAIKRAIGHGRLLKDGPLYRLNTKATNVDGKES
| Sequence | E-score |
| --- | --- |
| GGCGGGAA | 0.229 |
| ACGCAGTA | 0.00496 |
| CTCTTATC | -0.0887 |
| AGAAAGGC | 0.0423 |
| CCCTACGA | -0.175 |
| ATTGGCAC | -0.304 |
| ATTCCCGC | 0.274 |
| TACGCAAA | -0.0131 |
| CCATTTCG | -0.161 |
| TGCGATAA | -0.0741 |
| CCTAACAG | -0.151 |
| AGAGTAGA | -0.0869 |
| GGGAACCC | 0.0587 |
| GCACACAC | -0.0129 |
| GACGGGCA | 0.23 |
| ACCGGAGG | 0.0663 |
| CTTGCAGC | 0.0593 |
| CGGAACAC | 0.189 |
| CCAGAAGA | -0.28 |

Study 3 — technique: RNA Bind-n-Seq; form: RNA; medium: in vitro; tested at: 365 nM; reference: no-protein control; direction: higher = stronger binding
Target: RNA binding protein fox-1 homolog 2, RRM domain, GST-SBP tag (RBFOX2, Homo sapiens, UniProt O43251-10, residues 100-194)
Notes: natural RNA segment, single round, ends assumed
Constant ends, left off below: GGGAGUUCUACAGUCCGACGAUC … UGGAAUUCUCGGGUGCCAA
Residues (chain): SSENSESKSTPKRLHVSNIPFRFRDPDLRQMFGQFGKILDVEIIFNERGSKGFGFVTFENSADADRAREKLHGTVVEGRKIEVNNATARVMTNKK
| Sequence | RBNS enrichment (R) |
| --- | --- |
| ACUGCGCCUGGAUUCUGCCAUUGCGACACAUUUUUGUGCCUUUCAGCCCCUGGUGUCUGCAGUGGGGGAUUUAAGGCACCCGCUUCCACUUCUUUCUUGUUUGGAGUUUU | 0.299 |
| UCCAGUAAGCAGGCAGGCCCAGAGACUGCUUUCUCAGCACCGCACAGAUCUCAGUGGGUCACAUAACUUGCUUUACACUCAUCUUGUUGUGUCAGAAAUAAAGUGUUCGU | 0.453 |
| UUCUCAACCUCUGCACAGUUGACAUUUUGAGCCAAAUUAUUCUUUGUUGUGGUAGGCAGUCCUGUGCAUUUUAGAAUGUUUGGCAUUAUCUCUGGCCUCCCCCACAAGAU | 1.12 |
| AUCACAGUCUUGACAAAAUUCCUUUUCCCUAAAGCACACUUUGACAUUGUCACAUUAUUGACACAGUAAUUAGAAACCCACUGUGGCCUCUUCAGGAGUGUGCUUAUGUC | 0.44 |
| GAGUGCCAUCCGCCUCCCAGUCCGGUGUCACUCACCCAACCUUGUACAUGACUAGCUCUCCCAGUGUCCAAGCGCGUGCCUUCCCCGAGCCACUGGGGCGCAGCAGCGCG | 0.291 |
| ACGCAAGGACAGGGUACAAACUUAGCUGGAAGUCUGCCCAGGCUGAAUGAUCUCUUCCCUAGAGUUGAUUGUCGGGUACACAGUGUGAACCCCCGAAGACGGAACCUCAC | 0.606 |
| CUUGGUGUGAGACAAGGCACAUGCACGGGGUGCUCGGUCCCUCUGUGGGCUGUGCGUGGGUUCACCUGGGGCCUGCUUUUCAGAAGGCAAAGAUAAGCCCGCCAUGCUGG | 1.12 |
| GGAUUUGCUCUGAGUCUCCGGUGCAUCAUUUAAUCUGUUAGGUUCUAGUGUUCCGUCUUGUUUUGUGUUAAUUACAGCAUUGUGCUAAUGUAAAGACUCUGCCUUUGCGA | 0.992 |
| CUACAAUAAGAUUGUUGCCGUUAAGAAGACCUUGGAUGUUGUUCCAGUUAUGCUGGAUUCCACAGUGAAAUCAUUUAAAACCAUCUAAAUAAACCACUAUAUAUUUUAUG | 0.512 |
| AGAAAGUACUUUAUGUAACUAAGUGGGCUGUUCAGAAGCUUAGAGGUCAUUUUUUGUAAUUUUCUUUUUAAUUACUUUAGAGAGCUAGGGAUGCAAAUGUUUUCAGUUAG | 1.67 |
| UAUAAAUUGUCUUAUAUUUCUUAACCUCUUUUAUAAAAAUUUUCCUAGAAGGUUUAUACUGCCUUCUUGCUUUAAAGCAAUUGGUCUAAAAUAUAUGUAAUCGUCUUAAU | 0.6 |
| CCAAAUUAACACUACCUCCUCCCCAGUUGUUGGUAUUCAUUCAUUAUAUGUGUGUUUAACAGGAUGAGAGCAUGGCGAGCUUGUAGCACACCAGAGGUUGUAGACCUAUA | 1.27 |

Study 4 — technique: RNA Bind-n-Seq; form: RNA; medium: in vitro; tested at: 200 nM; notes: whole 134-nt RNA, ends assumed; with: 150 mM LiCl; reference: input library; direction: higher = stronger binding; each molecule: 7-deaza-guanosine replaces G
Target: Ras GTPase-activating protein-binding protein 1, full length (G3BP1, Homo sapiens, UniProt Q13283)
UniProt Q13283, sequence (whole entry, looked up): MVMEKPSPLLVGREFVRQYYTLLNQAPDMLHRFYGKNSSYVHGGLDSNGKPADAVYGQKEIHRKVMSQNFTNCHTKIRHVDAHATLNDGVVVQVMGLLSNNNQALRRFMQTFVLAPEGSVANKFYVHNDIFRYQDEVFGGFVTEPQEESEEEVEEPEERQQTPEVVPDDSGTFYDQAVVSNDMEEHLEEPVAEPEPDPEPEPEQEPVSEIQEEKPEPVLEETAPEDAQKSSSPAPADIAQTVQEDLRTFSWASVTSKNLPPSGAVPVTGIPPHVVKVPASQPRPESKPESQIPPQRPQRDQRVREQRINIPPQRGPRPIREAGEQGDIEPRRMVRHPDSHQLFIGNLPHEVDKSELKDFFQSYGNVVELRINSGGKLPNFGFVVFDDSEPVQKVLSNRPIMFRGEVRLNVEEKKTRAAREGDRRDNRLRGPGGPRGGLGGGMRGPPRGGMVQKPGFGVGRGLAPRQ
Constant ends, left off below: GGGAGUUCUACAGUCCGACGAUC … UGGAAUUCUCGGGUGUCAAGG
| Sequence | log2 enrichment |
| --- | --- |
| UGCUGUUCAGGUGGUGGAGAAGAAGAUGGAACCCCAGGCUGCCUGGCUACAGAGCCUGGAGGGAUGCAUGUGGACAGCCAAGAAGAAGCU | -1.38 |
| UAACUUUAGAGGAGGAUCUGAUGGAUAUGGCAGUGGACGUGGAUUUGGGGAUGGCUAUAAUGGGGAUGGAGGAGGACCUGGAGGUGGCAA | 0.048 |
| CAAGUCCUGUGCUACACAUCGUAUGUACCGAAUCGGUUUUUUUGGAAAAAGGAGGAAAGUAUUAUGUUACGCCGUUCGGAUCUGCACUUC | -1.03 |
| UGGGAGGUGGAUUUUGUUUCUUUUUUUAGCUCAUUUCCAGGGGUGGGAAUUUUUUUUUAAUAUGUGUCAUGAAUAAAGUUGUUUUUGAAA | 0.394 |
| UUGUUUGAAACAGCAACGCUUCGGUCAGGGUAUCUUUUACCAGACACUAAAGCAUAUGGAGAUAGAAUAGAAAGAAUGCUUCGCCUCAGU | -1.94 |
| GUCCUGUGCUACACAUCGUAUGUACCGAAUCGGGCCCCCGGCCCCCGGGGCCCCCGGGAAAGUAUUAUGUUACGCCGUUCGGAUCUGCAC | -1.63 |
| CCUCAAGUCCUGUGCUACACAUCGUAUGUACCGAAUCGGGUGGUGGGUGGGGAAAGUAUUAUGUUACGCCGUUCGGAUCUGCACUUCCAG | -0.0101 |
| GCAGGAAGUAAAAACAAAUGGAAAUGCUUCGGAUAGUGGCAGGGGUGGGGGUUGCUAAGGAAAGGGUGGGAUGGGAGUGGGUAAAGAGUC | -0.118 |
| UCCUGUGCUACACAUCGUAUGUACCGAAUCGGGUUUUUUGGGUUUUUUGGGGUUUUUUGGAAAGUAUUAUGUUACGCCGUUCGGAUCUGC | 0.862 |
| AAGUCCUGUGCUACACAUCGUAUGUACCGAAUCGGUUUUUGGAAAAAGGUUUUUGGAAAGUAUUAUGUUACGCCGUUCGGAUCUGCACUU | -2.46 |
| AGUCCUGUGCUACACAUCGUAUGUACCGAAUCGGGGUUUUUGGGUUUUUGGUUUUUGGAAAGUAUUAUGUUACGCCGUUCGGAUCUGCAC | -0.325 |

Repeated from above (study 2):
| Sequence | E-score |
| --- | --- |
| CCAGAAGA | -0.28 |
| GCACACAC | -0.0129 |
| GGGAACCC | 0.0587 |
| CCCTACGA | -0.175 |
